Measurements from different studies.
A part holds a random share of what one study measured. Changes are numbered by the printed parent chain.

Sample 1
Target: CCND3, cyclin fold, Cln2 fusion (human)
Technique: yeast growth competition, sequencing
Sample: yeast
Setting: weak parent motif
Baseline: not given
Reading: higher = stronger binding
Measurement: normalised enrichment score
Starting sequence: PKN2 docking peptide (human); VSAVQKLDFSDTM; partner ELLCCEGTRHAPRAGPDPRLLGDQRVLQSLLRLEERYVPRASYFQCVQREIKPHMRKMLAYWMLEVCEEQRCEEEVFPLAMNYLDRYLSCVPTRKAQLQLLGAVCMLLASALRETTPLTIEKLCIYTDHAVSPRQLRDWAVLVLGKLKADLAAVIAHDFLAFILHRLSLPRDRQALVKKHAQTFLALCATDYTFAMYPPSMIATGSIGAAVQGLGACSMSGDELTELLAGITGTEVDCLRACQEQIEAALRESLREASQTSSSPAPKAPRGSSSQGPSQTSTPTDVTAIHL
VSAVQKLDFSDTH [M13H]: 0.116
VSAVQKLDFGDTM [S10G]: 0.102
VSAVQKLDFSHTM [D11H]: 0.142
VTAVQKLDFSDTM [S2T]: 0.172
VAAVQKLDFSDTM [S2A]: 0.157
VSAVQKLDFIDTM [S10I]: 0.169
VSAVQKLDDSDTM [F9D]: 0.11
VSAVQYLDFSDTM [K6Y]: 0.0952

Sample 2
Target: NFE2, bZIP domain (human)
Technique: DHFR protein complementation
Sample: yeast
Setting: single substitutions, most at no-binding floor
Baseline: wild-type JUN-FOS pair
Reading: higher = stronger binding
Measurement: binding fitness
Starting sequence: JUN, bZIP domain (human); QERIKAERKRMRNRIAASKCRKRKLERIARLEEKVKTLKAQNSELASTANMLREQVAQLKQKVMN; partner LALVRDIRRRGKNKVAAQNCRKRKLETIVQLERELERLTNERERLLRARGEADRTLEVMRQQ
R30Q: -1.3 natural log
R53P: -1.51 natural log
L52F: -1.55 natural log
E32L: -1.52 natural log
K36C: -1.37 natural log
R53I: -1.4 natural log
Q58H: -1.52 natural log
R30N: -1.51 natural log

Sample 3
Target: CEP164, C-terminal peptide (human)
Technique: DHFR complementation, deep sequencing
Sample: yeast
Setting: single substitutions, model-inferred values
Baseline: wild type
Reading: higher = weaker binding
Measurement: binding free energy change
Starting sequence: PDZK1, PDZ domain 2 (human); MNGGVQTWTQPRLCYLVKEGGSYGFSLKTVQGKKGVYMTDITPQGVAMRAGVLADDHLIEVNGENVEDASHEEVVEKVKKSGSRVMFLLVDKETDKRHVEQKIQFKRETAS; partner HNRVKVYRF
K92W: 0.073 kcal/mol
D68N: -0.0358 kcal/mol
T94Q: -0.126 kcal/mol
Y37S: 0.58 kcal/mol
Q10T: 0.0185 kcal/mol
I59A: 0.808 kcal/mol
Q10Y: 0.308 kcal/mol
D56Y: 0.415 kcal/mol

Single results of other studies
Starting sequence: PafA, mature enzyme, eGFP fusion (Elizabethkingia meningoseptica, UniProt Q9KJX5); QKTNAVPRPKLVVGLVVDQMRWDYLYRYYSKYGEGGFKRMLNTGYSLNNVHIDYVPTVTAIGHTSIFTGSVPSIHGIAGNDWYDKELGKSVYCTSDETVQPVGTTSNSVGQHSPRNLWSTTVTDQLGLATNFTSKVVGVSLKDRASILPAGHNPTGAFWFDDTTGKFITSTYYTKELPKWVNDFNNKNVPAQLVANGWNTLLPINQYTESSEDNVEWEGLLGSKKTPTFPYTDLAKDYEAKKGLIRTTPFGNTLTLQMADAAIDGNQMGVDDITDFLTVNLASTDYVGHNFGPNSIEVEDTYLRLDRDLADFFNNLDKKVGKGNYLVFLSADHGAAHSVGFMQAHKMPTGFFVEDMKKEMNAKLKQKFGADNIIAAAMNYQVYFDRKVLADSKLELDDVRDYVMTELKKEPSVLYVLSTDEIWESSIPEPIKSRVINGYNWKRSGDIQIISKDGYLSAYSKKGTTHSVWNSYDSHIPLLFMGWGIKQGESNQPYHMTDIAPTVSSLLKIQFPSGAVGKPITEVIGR
G463A — oxyanion analog dissociation constant (vanadate, free oxyanion; microfluidic competitive inhibition; in vitro, cell-free expressed; not given, derived from inhibition constants, unchanged parent 676 nM; lower = stronger binding): 627 nM

Excerpt of the above (sample 2):
K36C: -1.37 natural log
R53P: -1.51 natural log
Q58H: -1.52 natural log
R53I: -1.4 natural log
